# Measurements gathered from unrelated publications.
# Parts stem from different laboratories: compare values within a part only.

# Study 1 — technique: universal PBM; form: double-stranded DNA, one strand shown; sample: in vitro; tested at: 600 nM; reading: higher = stronger binding
# Target: Sal-like protein 4, full length isoform A (SALL4, Homo sapiens, UniProt Q9UJQ4, residues 1-1053)
# Sequence of UniProt Q9UJQ4 (whole entry, looked up): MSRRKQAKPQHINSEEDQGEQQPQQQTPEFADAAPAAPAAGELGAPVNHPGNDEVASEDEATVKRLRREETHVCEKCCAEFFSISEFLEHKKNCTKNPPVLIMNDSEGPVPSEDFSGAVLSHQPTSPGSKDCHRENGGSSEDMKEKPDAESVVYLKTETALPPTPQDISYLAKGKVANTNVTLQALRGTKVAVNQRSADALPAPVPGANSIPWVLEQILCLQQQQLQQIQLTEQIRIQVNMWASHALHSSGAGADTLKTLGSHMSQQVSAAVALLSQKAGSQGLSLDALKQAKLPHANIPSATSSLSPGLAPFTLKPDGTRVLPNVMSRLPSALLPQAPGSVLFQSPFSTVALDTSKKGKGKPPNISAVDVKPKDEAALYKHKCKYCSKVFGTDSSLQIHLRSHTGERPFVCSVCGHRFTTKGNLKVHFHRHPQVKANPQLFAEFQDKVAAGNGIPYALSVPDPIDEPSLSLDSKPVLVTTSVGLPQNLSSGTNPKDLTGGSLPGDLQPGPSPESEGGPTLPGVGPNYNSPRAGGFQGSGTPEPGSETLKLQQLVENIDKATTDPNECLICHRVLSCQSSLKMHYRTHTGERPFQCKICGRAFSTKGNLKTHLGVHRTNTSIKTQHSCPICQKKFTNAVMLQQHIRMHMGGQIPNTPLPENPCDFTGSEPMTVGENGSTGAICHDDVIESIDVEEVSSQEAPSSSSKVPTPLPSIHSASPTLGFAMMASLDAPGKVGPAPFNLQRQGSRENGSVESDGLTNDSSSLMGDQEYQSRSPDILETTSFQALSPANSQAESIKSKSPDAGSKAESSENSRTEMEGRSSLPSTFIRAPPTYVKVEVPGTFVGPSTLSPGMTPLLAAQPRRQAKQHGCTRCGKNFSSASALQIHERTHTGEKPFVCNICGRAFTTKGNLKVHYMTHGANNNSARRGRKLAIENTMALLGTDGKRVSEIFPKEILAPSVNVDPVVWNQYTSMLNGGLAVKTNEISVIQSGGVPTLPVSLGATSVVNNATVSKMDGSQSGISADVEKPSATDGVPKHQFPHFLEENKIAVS
# Setting: 8-mer, flanks averaged, mean of replicates
Sequence,E-score
AACATGGA,0.254
CAAATTTC,0.226
TTGGGAAA,0.0896
GATGCGGA,-0.216
CATGACTC,-0.0804

# Study 2 — technique: protein binding microarray; form: double-stranded DNA, one strand shown; sample: in vitro; tested at: not given; baseline: not given; reading: higher = stronger binding
# Target: Histone acetyltransferase KAT6A, winged helix 2, GST fusion (KAT6A, Homo sapiens, UniProt Q92794, residues 85-181)
# Setting: 8-mer, flanks averaged, mean of 2 arrays, mostly near background
# Residues (chain): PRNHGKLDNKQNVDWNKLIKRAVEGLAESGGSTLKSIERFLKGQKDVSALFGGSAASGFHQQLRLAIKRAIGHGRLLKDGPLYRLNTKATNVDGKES
Sequence,E-score
ACCGCCAT,0.113
CCTCCCAC,0.133
CTACACCA,-0.0249
CATAAAAC,-0.0643
CCGCCCGC,0.275

# Study 3 — technique: RNA Bind-n-Seq; form: RNA; sample: in vitro; tested at: 200 nM; setting: whole 134-nt RNA, ends assumed; added: 150 mM KCl; baseline: input library; reading: higher = stronger binding
# Target: Fragile X messenger ribonucleoprotein 1, C-terminal low-complexity region (Fmr1, Mus musculus, UniProt P35922)
Sequence,log2 enrichment
GGGAGUUCUACAGUCCGACGAUCGUCCUGUGCUACACAUCGUAUGUACCGAAUCGGGGUGGGGUUUUUUUGGGGUUUGGGGAAAGUAUUAUGUUACGCCGUUCGGAUCUGCACUGGAAUUCUCGGGUGUCAAGG,0.695
GGGAGUUCUACAGUCCGACGAUCUCCUCAAGUCCUGUGCUACACAUCGUAUGUACCGAAUCGGGGCGGCGGGCGGAAAGUAUUAUGUUACGCCGUUCGGAUCUGCACUUCCAGUGGAAUUCUCGGGUGUCAAGG,0.24
GGGAGUUCUACAGUCCGACGAUCUUCCUUUCCGUUGUGUGUUUUAAAGGUGUGUGCCCUCUUCCUGAUUCUGGAGAAAAAUGCCGGUCCGGAAGCAAGGUGAGAGUUUAUUCCUGGAAUUCUCGGGUGUCAAGG,0.387

# Single results of other studies
Molecule,target,test,system,setting,scale,quantity,value
"PhoQ, residues 284 288 289 292 302 303 GNNTDL","PhoP, residues 12 14 15 18 19 VHSCL (Escherichia coli, UniProt P23836)","Sort-seq, measured: YFP reporter",E. coli,"PhoQ-PhoP variant library, added: 10 µM Mg2+","baseline: high Mg2+ state, higher = stronger signaling",fold induction,3.02

# Excerpt of the above (study 1):
Sequence,E-score
TTGGGAAA,0.0896
GATGCGGA,-0.216
